Assay results gathered from unrelated publications.
Protocols differ between the studies behind these lines. Several values in a cell are separate wells, animals, samples, runs or records. Numbers after ± are the reported error.
PPARG: Peroxisome proliferator-activated receptor gamma (PPARG, Homo sapiens, UniProt P37231)
Chain of UniProt P37231 (whole entry, looked up): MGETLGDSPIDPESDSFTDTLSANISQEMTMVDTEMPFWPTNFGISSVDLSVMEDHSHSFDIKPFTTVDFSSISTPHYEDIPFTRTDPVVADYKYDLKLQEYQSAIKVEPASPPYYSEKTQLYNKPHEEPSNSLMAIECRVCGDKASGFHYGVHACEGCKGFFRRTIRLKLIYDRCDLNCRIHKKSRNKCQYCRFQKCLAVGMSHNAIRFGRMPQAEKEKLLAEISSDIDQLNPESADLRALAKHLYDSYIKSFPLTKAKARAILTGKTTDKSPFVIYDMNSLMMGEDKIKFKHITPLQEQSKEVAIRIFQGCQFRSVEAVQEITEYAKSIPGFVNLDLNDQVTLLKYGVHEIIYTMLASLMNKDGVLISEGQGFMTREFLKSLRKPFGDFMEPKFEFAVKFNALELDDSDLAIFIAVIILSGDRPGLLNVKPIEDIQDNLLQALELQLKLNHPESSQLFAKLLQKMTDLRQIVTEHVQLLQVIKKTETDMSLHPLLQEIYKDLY
SCN5A: Sodium channel protein type 5 subunit alpha (SCN5A, Homo sapiens, UniProt Q14524)
Chain of UniProt Q14524 (whole entry, looked up): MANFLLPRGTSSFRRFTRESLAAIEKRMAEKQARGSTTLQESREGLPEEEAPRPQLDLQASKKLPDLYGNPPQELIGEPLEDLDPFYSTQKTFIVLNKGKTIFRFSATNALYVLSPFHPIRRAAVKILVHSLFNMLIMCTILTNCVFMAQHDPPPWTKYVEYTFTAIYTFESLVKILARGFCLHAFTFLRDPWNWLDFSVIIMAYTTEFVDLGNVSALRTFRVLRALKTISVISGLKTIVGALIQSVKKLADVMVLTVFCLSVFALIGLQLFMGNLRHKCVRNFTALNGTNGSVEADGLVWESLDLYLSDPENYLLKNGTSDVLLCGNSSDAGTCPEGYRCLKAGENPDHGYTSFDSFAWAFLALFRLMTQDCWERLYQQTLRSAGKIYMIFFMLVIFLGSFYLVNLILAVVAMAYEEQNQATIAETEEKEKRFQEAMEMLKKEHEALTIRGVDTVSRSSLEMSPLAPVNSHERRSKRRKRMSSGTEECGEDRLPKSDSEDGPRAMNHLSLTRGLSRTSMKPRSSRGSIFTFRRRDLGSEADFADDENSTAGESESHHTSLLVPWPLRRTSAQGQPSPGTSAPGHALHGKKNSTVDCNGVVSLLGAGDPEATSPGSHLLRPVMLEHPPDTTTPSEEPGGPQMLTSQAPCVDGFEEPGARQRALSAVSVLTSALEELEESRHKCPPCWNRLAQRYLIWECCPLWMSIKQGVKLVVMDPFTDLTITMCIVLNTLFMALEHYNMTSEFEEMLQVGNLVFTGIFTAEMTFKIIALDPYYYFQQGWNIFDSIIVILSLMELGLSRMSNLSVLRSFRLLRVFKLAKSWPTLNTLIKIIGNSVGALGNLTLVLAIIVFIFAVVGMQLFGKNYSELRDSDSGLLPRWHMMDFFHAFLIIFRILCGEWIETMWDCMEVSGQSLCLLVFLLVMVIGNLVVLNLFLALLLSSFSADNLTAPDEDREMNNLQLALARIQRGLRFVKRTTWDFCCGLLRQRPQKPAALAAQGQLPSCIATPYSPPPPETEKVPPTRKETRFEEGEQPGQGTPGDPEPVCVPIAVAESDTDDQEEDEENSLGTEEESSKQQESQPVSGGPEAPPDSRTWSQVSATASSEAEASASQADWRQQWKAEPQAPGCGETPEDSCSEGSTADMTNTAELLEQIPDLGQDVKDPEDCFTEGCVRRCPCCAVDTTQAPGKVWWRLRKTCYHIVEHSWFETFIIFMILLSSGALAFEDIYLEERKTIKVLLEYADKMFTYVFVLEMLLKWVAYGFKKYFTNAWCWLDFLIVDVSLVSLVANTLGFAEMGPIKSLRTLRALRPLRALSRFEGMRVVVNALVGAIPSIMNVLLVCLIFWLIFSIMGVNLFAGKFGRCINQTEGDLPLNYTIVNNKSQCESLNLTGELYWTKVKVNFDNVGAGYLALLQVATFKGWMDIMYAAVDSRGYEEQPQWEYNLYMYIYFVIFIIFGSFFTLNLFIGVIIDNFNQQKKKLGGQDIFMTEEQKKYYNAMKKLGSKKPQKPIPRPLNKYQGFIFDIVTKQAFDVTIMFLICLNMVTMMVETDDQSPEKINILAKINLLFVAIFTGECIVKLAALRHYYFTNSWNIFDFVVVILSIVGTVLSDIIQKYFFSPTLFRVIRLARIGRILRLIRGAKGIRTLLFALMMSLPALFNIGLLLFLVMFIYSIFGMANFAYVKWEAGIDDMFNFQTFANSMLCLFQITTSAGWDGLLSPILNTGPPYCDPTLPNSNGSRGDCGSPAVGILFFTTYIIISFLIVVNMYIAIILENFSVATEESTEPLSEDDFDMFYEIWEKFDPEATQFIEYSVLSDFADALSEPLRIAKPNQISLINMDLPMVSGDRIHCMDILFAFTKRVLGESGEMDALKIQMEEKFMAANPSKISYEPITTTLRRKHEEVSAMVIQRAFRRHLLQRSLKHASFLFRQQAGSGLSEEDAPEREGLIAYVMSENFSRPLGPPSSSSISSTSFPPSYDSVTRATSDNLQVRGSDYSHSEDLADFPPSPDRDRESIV
PPARG ligand-binding domain: Peroxisome proliferator-activated receptor gamma, ligand-binding domain (PPARG, Homo sapiens, UniProt P37231)
Melanoma-associated antigen 4 MAGE homology domain: Melanoma-associated antigen 4, MAGE homology domain (Homo sapiens, UniProt P43358)
Chain of UniProt P43358 (whole entry, looked up): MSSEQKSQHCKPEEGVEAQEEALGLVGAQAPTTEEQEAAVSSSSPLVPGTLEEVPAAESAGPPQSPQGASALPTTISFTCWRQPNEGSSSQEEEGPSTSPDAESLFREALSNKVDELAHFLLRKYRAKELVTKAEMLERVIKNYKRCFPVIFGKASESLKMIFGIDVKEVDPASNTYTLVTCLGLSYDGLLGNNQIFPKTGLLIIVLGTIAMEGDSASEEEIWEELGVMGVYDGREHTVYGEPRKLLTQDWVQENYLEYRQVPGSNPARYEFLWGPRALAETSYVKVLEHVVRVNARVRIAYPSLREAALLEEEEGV
Rhomboid protease AarA: Rhomboid protease AarA (Providencia stuartii, UniProt P46116)
Chain of UniProt P46116 (whole entry, looked up): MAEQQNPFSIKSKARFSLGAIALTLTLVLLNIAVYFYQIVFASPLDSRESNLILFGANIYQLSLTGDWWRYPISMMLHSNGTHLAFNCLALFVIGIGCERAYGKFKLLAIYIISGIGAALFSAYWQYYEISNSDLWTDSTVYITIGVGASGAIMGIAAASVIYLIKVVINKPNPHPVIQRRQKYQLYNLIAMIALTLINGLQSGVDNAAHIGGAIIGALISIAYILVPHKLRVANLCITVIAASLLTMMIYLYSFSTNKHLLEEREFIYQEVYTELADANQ
HDAC1: Histone deacetylase 1 (HDAC1, Homo sapiens, UniProt Q13547)
Chain of UniProt Q13547 (whole entry, looked up): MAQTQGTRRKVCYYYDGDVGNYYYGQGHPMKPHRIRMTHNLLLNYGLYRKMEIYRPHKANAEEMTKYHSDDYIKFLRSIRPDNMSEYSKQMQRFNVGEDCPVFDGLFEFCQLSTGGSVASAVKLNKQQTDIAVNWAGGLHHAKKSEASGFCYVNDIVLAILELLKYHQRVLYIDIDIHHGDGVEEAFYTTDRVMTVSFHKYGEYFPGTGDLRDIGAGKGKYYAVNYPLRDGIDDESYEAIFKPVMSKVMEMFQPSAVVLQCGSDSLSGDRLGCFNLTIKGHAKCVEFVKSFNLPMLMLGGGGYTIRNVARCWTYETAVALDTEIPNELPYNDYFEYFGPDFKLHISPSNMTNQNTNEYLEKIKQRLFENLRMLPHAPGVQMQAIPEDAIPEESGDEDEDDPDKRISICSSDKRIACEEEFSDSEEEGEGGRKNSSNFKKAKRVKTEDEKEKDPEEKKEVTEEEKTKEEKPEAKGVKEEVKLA
Chain of UniProt P21741 (whole entry, looked up): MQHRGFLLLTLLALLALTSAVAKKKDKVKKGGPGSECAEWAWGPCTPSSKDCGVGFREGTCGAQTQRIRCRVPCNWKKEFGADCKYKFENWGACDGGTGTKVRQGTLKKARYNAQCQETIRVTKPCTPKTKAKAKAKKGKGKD
Chain of UniProt P07550 (whole entry, unmodified, looked up): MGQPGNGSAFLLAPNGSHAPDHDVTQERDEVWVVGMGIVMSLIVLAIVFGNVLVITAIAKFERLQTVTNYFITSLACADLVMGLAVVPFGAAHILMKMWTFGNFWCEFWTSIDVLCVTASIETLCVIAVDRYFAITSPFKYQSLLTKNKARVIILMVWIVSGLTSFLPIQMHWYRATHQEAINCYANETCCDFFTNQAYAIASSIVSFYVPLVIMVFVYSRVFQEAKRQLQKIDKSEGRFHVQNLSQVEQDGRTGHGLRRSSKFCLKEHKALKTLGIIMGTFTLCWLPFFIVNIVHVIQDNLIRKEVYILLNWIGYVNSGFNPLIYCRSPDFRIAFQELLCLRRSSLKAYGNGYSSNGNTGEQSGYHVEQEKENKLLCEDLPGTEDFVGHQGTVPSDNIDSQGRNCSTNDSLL
Chain of UniProt P08172 (whole entry, looked up): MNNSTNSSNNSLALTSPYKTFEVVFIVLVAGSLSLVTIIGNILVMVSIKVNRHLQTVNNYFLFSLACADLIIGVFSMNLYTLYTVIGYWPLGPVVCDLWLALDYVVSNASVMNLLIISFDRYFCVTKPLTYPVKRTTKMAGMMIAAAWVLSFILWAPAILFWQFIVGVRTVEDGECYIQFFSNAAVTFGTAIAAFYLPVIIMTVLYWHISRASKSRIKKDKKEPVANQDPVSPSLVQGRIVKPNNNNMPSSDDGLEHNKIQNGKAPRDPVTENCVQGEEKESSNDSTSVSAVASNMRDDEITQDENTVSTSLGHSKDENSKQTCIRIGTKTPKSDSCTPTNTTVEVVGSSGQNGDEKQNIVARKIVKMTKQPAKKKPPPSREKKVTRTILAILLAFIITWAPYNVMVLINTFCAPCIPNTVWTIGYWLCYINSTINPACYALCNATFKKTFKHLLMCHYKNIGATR
Chain of UniProt P51681 (whole entry, unmodified, looked up): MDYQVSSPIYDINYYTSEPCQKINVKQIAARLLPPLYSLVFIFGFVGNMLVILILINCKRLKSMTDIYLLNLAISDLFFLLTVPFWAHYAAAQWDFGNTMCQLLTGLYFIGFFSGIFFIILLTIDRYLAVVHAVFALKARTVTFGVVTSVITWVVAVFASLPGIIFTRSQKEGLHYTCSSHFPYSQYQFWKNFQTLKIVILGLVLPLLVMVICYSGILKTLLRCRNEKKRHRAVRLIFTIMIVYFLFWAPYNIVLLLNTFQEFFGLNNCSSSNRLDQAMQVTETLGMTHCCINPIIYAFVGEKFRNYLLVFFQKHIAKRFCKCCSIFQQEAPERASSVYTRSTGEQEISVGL

`Cc1c(Cc2cccc(OC(C)(C)C(=O)O)c2)c2ccc(C(=O)N[C@@H](C)c3ccc(C(C)C)cc3)cc2n1C` gave an IC50 of 0.002 µM (PPARG; ligand displacement, TR-FRET).
`[N-]=[N+]=N[C@]1(COP(=O)(O)OP(=O)(O)OP(=O)(O)O)O[C@@H](n2ccc(N)nc2=O)[C@@H](F)[C@@H]1O` has an IC50 of 5.3 µM (Gag-Pol polyprotein, reverse transcriptase (gag-pol, Human immunodeficiency virus type 1 group M subtype B, UniProt P04585); reverse transcriptase activity, inhibitor; RNA template, together with: dCTP 1 µM).
For `CCCSc1nc(Sc2ncccn2)c2nnn(CCO)c2n1`, the IC50 was 8.89 µM (KDM1A (Homo sapiens, UniProt O60341); enzyme activity, inhibitor, fluorescence).
`Cc1ccc(C(=O)Nc2ccnc(S(N)(=O)=O)c2)c(N2CCCC(F)(F)CC2)n1` gave an IC50 of greater than 33.8 µM (SCN5A; ion current, automated whole-cell patch clamp; pH 7.3).
With `O=Cc1ccc(C(=O)N2CCc3cc(NC(=O)c4ccc(CN(C(=O)c5ccc6c(c5)OCC(=O)N6)C5CC5)cc4)ccc3C2)cc1` the IC50 was 0.159 µM (NSD2 (Homo sapiens, UniProt O96028); ligand displacement, TR-FRET).
With `CC(C)C[C@H](NC(=O)CNC(=O)[C@H](C)NC(=O)[C@H](C)NC(=O)[C@H](CCCNC(=N)N)NC(=O)CNC(=O)CCCCNC(=O)CCCCNC(=O)CCCCNC(=O)[C@H](CCCCN)NC(=O)[C@H](C)NC(=O)[C@@H](N)Cc1c[nH]c2ccccc12)C(=O)N[C@@H](CC(C)C)C(=O)N[C@@H](CO)C(N)=O` the IC50 was 0.84 µM (NPBWR1 (Homo sapiens, UniProt P48145); calcium signal, antagonist).
With `CCn1c(C)c(Cc2cccc(OC(C)(C)C(=O)O)c2)c2ccc(C(=O)N[C@@H](C)c3cccc(C(C)(C)C)c3)cc21` the IC50 was 0.97 µM (PPARG ligand-binding domain; reporter gene, luciferase reporter; HEK293T, Gal4-PPARγ LBD).
With `CC[C@H](C)[C@@H]1NC(=O)[C@H](Cc2ccc(O)cc2)NC(=O)CSC[C@@H](C(N)=O)NC(=O)[C@H](CC(N)=O)NC(=O)[C@H](Cc2c[nH]cn2)NC(=O)[C@H](Cc2ccc(O)cc2)NC(=O)[C@H](CC(=O)O)NC(=O)[C@H](Cc2ccc(F)c(F)c2)NC(=O)[C@H](CC(C)C)NC(=O)[C@H](CCCNC(=N)N)NC1=O` the IC50 was 0.0112 ± 0.0041 µM (Melanoma-associated antigen 4 MAGE homology domain; binding, inhibitor, TR-FRET displacement; together with: Alexa647-MTP-1).
The IC50 of `Cc1cccc(C)c1NC(=O)C(C(F)(F)F)C(F)(F)F` is reported as 17 µM (Rhomboid protease AarA; enzyme activity, inhibitor, fluorogenic peptide).
For `Cc1nc2c(F)cc(-c3nc(Nc4ccc(CNC(=O)CCCCCCC(=O)NO)cc4)ncc3F)cc2n1C(C)C`, the IC50 was 0.026 µM (HDAC1; enzyme activity, inhibitor).
`COc1ccc2c(c1)CN(C(=O)CCN1CCC(Cc3ccccc3)CC1)CCS2` gave an IC50 of 1.7 µM (SCN5A; INa current, inhibitor, whole-cell patch clamp; stable cell line).
With `O=C(Nc1ccccc1OCCc1ccccc1)C(C(F)(F)F)C(F)(F)F` the IC50 was 1.9 µM (Rhomboid protease AarA; enzyme activity, inhibitor, fluorescence).
With `CN1CCCN(c2cnc3c(cc(C(=O)NCc4ccc(Cl)cc4)c(=O)n3CC(=O)N3CC(C)(F)C3)n2)C1=O` the IC50 was 9.88 µM (KCNH2 (Homo sapiens, UniProt Q12809); ion current, inhibitor, patch clamp).
`O=C(NCCOc1ccccc1NC(=O)C(C(F)(F)F)C(F)(F)F)c1ccccc1` gave an IC50 of 10 µM (Rhomboid protease AarA; enzyme activity, inhibitor, fluorescence).
For `Cc1c(Cc2ccc(OC(C)(C)C(=O)O)cc2)c2ccc(C(=O)N[C@@H](C)c3ccc(C4CC4)cc3)cc2n1C`, the IC50 was 3.02 µM (PPARG ligand-binding domain; reporter gene, luciferase reporter; HEK293T, Gal4-PPARγ LBD).
`Fc1ccc(Nc2nc(NC3CCCCC3)c3cc(Br)ccc3n2)cc1F` gave an IC50 of 0.158 µM (ADRB2 (Homo sapiens, UniProt P07550, N148A); β-arrestin2 recruitment, antagonist, BRET; HEK293; mutant N148A, together with: isoprenaline 1 µM).
`COc1ccc(O[C@@H]2O[C@H](COS(=O)(=O)O)[C@H](OS(=O)(=O)O)[C@H](O[C@@H]3O[C@H](C(=O)O)[C@@H](O[C@@H]4O[C@H](COS(=O)(=O)O)[C@H](OS(=O)(=O)O)[C@H](O[C@@H]5O[C@H](C(=O)O)[C@@H](OS(=O)(=O)O)[C@H](O)[C@H]5O)[C@H]4NC(C)=O)[C@H](O)[C@H]3O)[C@H]2NC(C)=O)cc1` gave an IC50 of 149 µM and 122 µM (Midkine (Homo sapiens, UniProt P21741); heparin hexasaccharide binding, fluorescence polarisation competition; together with: fluorescein-labelled hexasaccharide probe).
`O=C(CCNC(=O)CNC(=O)CC(c1ccccc1)(c1ccccc1)c1ccccc1)NC[C@@H]1CCCN(C[C@H]2C[C@H](F)C2)C1` has an IC50 of greater than 30 µM (CHRM2 (Homo sapiens, UniProt P08172); ligand displacement, radioligand; cell membranes).
With `Cc1c(Cc2ccc(OC(C)C(=O)O)cc2)c2ccc(C(=O)N[C@@H](C)c3cccc(C(C)(C)C)c3)cc2n1C` (stereo partly drawn) the IC50 was 0.029 µM (PPARG; ligand displacement, TR-FRET).
`O=C(NCc1ccc(F)cc1)c1ccc(NC(=O)C(C(F)(F)F)C(F)(F)F)cc1` gave an IC50 of 12 µM (Rhomboid protease AarA; enzyme activity, inhibitor, fluorescence).
`CC[C@H](C)[C@@H]1NC(=O)[C@H](Cc2ccccc2)NC(=O)CSC[C@@H](C(N)=O)NC(=O)[C@H](CC(N)=O)NC(=O)[C@H](Cc2c[nH]cn2)NC(=O)[C@H](Cc2ccc(O)cc2)NC(=O)[C@H](CC(=O)O)NC(=O)[C@H](Cc2ccc(O)cc2)NC(=O)[C@H](CC(C)C)NC(=O)[C@H](CCCNC(=N)N)NC1=O` gave an IC50 of 0.0482 ± 0.0034 µM (Melanoma-associated antigen 4 MAGE homology domain; binding, inhibitor, TR-FRET displacement; together with: Alexa647-MTP-1).
The IC50 of `CCCCCCCC(=O)Nc1ccc(Nc2ncc(F)c(-c3cc(F)c4nc(C)n(C(C)C)c4c3)n2)cc1` is reported as greater than 1 µM (HDAC1; enzyme activity, inhibitor).
The IC50 of `Cc1nnc(-c2ccc(CC(=O)NC(CCN3C4CCC3CC(n3c(C)nnc3C(C)C)C4)c3ccccc3)cc2)nn1` (stereo not drawn) is reported as 0.00171 µM (CCR5 (Homo sapiens, UniProt P51681, Y184K); calcium mobilization, antagonist; HEK293T cells expressing CCR5; together with: PSC-RANTES).
`Cc1c(Cc2cccc(OC(C(=O)O)C(F)(F)F)c2)c2ccc(C(=O)N[C@@H](C)c3cccc(C(C)(C)C)c3)cc2n1C` (stereo partly drawn) gave an IC50 of 77.7 µM (PPARG ligand-binding domain; reporter gene, luciferase reporter; HEK293T, Gal4-PPARγ LBD).
For `Cc1nn(-c2cccc(N)c2)c(=O)c2cnc(Nc3ccc(N4CCNCC4)cc3)nc12`, the IC50 was greater than 10 µM (MAP2K2 (Homo sapiens, UniProt P36507); enzyme activity, inhibitor).
With `O=C(Cc1ccccc1)NCCOc1ccccc1NC(=O)C(C(F)(F)F)C(F)(F)F` the IC50 was 12.5 µM (Rhomboid protease AarA; enzyme activity, inhibitor, fluorescence).
The IC50 of `Cc1c(Cc2ccc(OC(C)(C)C(=O)O)cc2)c2ccc(C(=O)N[C@@H](C)c3cccc(C(F)(F)F)c3)cc2n1C` is reported as 1.78 µM (PPARG ligand-binding domain; reporter gene, luciferase reporter; HEK293T, Gal4-PPARγ LBD).
`Cc1cccc(NC(=O)C(C(F)(F)F)C(F)(F)F)c1` gave an IC50 of 18.3 µM (Rhomboid protease AarA; enzyme activity, inhibitor, fluorescence).
For `Cc1c(Cc2ccc(OC(C)(C)C(=O)O)cc2)c2ccc(C(=O)N[C@@H](C)c3cccc(C4CC4)c3)cc2n1C`, the IC50 was 1.62 µM (PPARG ligand-binding domain; reporter gene, luciferase reporter; HEK293T, Gal4-PPARγ LBD).
With `O=C(NCC1CC1)c1cccc(NC(=O)C(C(F)(F)F)C(F)(F)F)c1` the IC50 was 20 µM (Rhomboid protease AarA; enzyme activity, inhibitor, fluorescence).
With `CC(C)Oc1cc(NC(=O)[C@H](Cc2ccccc2)NC(=O)c2ccc(N)cc2OCc2ccccc2)ccc1C(=O)NCC(=O)O` the IC50 was greater than 100 µM (MCL1 (Homo sapiens, UniProt Q07820); fluorescence anisotropy competition; pH 7.50, together with: FITC-NOXA B tracer).
For `Cc1nc2cc(C(=O)N[C@@H](C)c3cccc(C(C)(C)C)c3)ccc2n1Cc1cccc(OC(C)(C)C(=O)O)c1`, the IC50 was 0.262 µM (PPARG; ligand displacement, TR-FRET).
`COc1cc2cc(CN(Cc3nnnn3Cc3ccco3)C3CCCCC3)c(=O)[nH]c2cc1OC` has an IC50 of 14 µM (Cruzipain (Trypanosoma cruzi, UniProt P25779); enzyme activity, inhibitor).

Some of these lines once more:
`O=C(NCc1ccc(F)cc1)c1ccc(NC(=O)C(C(F)(F)F)C(F)(F)F)cc1` gave an IC50 of 12 µM (Rhomboid protease AarA; enzyme activity, inhibitor, fluorescence).
`CC[C@H](C)[C@@H]1NC(=O)[C@H](Cc2ccccc2)NC(=O)CSC[C@@H](C(N)=O)NC(=O)[C@H](CC(N)=O)NC(=O)[C@H](Cc2c[nH]cn2)NC(=O)[C@H](Cc2ccc(O)cc2)NC(=O)[C@H](CC(=O)O)NC(=O)[C@H](Cc2ccc(O)cc2)NC(=O)[C@H](CC(C)C)NC(=O)[C@H](CCCNC(=N)N)NC1=O` gave an IC50 of 0.0482 ± 0.0034 µM (Melanoma-associated antigen 4 MAGE homology domain; binding, inhibitor, TR-FRET displacement; together with: Alexa647-MTP-1).
The IC50 of `CCCCCCCC(=O)Nc1ccc(Nc2ncc(F)c(-c3cc(F)c4nc(C)n(C(C)C)c4c3)n2)cc1` is reported as greater than 1 µM (HDAC1; enzyme activity, inhibitor).
The IC50 of `Cc1nnc(-c2ccc(CC(=O)NC(CCN3C4CCC3CC(n3c(C)nnc3C(C)C)C4)c3ccccc3)cc2)nn1` (stereo not drawn) is reported as 0.00171 µM (CCR5 (Homo sapiens, UniProt P51681, Y184K); calcium mobilization, antagonist; HEK293T cells expressing CCR5; together with: PSC-RANTES).
